Measurements pooled from the literature.
Each numbered part is a random draw from the data of one study; scales do not carry over between parts. Values joined by “and” are separate records of one study, mostly repeats; a detail may differ.
UniProt P42336, sequence (whole entry, unmodified, looked up): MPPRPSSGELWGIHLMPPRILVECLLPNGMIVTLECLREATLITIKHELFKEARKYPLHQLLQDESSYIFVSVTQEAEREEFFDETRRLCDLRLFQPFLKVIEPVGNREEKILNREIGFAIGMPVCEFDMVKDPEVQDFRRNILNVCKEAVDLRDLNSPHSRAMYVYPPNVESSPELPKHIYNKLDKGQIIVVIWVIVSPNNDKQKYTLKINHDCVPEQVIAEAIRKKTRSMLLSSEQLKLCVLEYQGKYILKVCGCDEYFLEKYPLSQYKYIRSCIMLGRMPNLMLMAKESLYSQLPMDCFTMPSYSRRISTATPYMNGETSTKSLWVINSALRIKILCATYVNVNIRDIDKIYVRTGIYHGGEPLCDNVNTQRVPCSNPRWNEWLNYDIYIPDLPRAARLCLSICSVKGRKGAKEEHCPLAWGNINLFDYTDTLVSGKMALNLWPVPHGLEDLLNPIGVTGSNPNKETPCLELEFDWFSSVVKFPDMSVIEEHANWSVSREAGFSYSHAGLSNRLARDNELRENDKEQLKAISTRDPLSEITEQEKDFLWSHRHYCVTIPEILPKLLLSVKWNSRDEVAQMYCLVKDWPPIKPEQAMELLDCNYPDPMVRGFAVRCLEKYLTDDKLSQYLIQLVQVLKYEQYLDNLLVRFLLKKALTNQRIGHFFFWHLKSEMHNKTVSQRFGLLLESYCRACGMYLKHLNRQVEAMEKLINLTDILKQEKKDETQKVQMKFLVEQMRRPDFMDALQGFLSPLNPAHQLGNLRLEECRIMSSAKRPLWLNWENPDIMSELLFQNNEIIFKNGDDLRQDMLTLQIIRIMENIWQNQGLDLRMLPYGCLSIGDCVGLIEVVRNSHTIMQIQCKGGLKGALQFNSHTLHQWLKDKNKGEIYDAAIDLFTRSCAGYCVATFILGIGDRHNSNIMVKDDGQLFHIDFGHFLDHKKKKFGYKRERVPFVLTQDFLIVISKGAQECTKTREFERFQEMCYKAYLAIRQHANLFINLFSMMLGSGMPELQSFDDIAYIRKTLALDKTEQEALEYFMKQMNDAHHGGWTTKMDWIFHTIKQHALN
UniProt Q9Y2H1, sequence (whole entry, looked up): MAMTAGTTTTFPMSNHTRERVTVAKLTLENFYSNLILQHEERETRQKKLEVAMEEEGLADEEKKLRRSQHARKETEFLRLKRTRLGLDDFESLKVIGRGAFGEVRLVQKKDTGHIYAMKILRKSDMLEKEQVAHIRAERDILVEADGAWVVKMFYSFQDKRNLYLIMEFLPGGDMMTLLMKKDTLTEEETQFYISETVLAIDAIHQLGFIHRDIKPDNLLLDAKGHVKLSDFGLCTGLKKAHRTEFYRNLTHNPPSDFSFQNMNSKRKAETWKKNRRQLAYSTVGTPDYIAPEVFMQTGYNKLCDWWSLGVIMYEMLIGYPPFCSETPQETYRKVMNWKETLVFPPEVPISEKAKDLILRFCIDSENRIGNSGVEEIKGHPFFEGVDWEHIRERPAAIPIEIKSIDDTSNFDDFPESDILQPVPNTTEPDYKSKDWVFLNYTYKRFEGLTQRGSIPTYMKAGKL
UniProt P29323, sequence (whole entry, looked up): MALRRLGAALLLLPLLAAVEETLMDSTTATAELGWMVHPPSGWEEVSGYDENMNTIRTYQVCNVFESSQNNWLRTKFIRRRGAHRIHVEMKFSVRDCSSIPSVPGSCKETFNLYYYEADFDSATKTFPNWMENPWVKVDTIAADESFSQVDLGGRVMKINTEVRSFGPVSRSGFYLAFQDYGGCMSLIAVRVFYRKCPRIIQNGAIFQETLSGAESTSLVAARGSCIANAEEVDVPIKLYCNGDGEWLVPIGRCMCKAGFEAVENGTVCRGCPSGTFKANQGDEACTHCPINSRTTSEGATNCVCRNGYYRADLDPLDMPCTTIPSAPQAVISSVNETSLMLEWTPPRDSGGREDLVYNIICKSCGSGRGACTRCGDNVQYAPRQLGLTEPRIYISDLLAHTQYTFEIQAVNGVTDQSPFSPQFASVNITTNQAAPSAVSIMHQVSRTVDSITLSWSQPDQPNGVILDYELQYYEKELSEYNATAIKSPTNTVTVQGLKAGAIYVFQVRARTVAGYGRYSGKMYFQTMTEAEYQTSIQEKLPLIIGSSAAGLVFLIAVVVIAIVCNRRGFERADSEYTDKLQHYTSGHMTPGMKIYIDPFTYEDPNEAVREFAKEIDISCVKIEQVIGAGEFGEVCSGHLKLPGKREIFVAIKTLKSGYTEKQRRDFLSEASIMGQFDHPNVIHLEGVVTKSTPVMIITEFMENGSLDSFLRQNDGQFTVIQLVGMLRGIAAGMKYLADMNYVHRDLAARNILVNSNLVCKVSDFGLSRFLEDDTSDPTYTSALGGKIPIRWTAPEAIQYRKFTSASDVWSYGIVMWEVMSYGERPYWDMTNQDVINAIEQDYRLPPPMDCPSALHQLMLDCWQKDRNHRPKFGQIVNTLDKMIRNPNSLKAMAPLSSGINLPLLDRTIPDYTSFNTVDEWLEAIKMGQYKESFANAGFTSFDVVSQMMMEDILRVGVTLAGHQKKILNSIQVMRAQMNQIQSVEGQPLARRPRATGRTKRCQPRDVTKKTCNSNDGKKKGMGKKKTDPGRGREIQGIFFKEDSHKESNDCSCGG
UniProt Q99640, sequence (whole entry, looked up): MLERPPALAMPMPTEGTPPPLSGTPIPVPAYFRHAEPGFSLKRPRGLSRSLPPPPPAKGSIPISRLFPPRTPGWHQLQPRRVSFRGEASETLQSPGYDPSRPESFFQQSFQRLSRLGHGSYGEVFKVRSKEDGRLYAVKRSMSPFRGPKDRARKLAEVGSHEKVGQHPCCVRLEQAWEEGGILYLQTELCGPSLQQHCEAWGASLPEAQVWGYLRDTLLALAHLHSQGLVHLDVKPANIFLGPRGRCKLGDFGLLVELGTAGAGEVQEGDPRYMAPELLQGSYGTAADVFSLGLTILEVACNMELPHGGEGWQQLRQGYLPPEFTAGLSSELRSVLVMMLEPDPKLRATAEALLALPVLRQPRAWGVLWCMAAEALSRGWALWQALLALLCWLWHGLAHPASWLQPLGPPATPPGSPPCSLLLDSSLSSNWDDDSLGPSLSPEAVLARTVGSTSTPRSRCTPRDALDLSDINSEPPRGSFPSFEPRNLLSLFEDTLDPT
UniProt Q8TDX7, sequence (whole entry, looked up): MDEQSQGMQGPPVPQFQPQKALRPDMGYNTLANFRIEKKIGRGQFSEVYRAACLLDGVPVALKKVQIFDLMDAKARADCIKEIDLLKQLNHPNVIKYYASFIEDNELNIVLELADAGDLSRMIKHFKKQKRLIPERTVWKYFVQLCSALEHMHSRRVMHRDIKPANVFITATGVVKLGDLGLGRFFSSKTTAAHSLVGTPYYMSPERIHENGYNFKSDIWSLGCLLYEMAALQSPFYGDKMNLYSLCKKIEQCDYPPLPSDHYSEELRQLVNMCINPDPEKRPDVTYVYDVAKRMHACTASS

Study 1
SMILES: CCN1/C(=C/C=C2\CCCC(/C=C/C3=[N+](CC)c4ccccc4C3(C)C)=C2NCCCCCCCCN2CCC(Nc3nc4ccccc4n3Cc3ccc(F)cc3)CC2)C(C)(C)c2ccccc21
Cell line: U-87 MG
Concentration: concentration not given
Baseline: DMSO
Measurement: log2 fold change
item: FAM180A mRNA: -1.98
item: FBXO5 mRNA: -1.67
item: ITGBL1 mRNA: 1.83
item: PABIR1 mRNA: 0.853
item: FAM111A mRNA: -0.857
item: NUDT6 mRNA: -1.33
item: ECT2 mRNA: -1.38
item: UCHL1 mRNA: 0.895
item: AEN mRNA: 1.17
item: COL5A1 mRNA: -1.91
item: PCDHB14 mRNA: -1.2
item: CCR7 mRNA: -4.82
item: SCIN mRNA: -2.61
item: LAPTM4B mRNA: -0.83
item: CRISPLD1 mRNA: -2.16
item: SLAMF8 mRNA: -1.69

Study 2
Compound: CC[C@@]1(c2cccc(C(F)(F)F)c2)C2=C(Nc3n[nH]cc31)[C@H](F)C(C)(C)CC2=O (single isomer, unassigned)
Concentration: 1 µM
Measurement: remaining binding
EPHB2 (Homo sapiens, UniProt P29323); kinase binding, KINOMEscan; baseline: DMSO control: 100%
MAPK11 (Homo sapiens, UniProt Q15759); kinase binding, KINOMEscan; baseline: DMSO control: 100%
PIM2 (Homo sapiens, UniProt Q9P1W9); binding, competition with immobilised ligand: 100%
NEK7 (Homo sapiens, UniProt Q8TDX7); kinase binding, KINOMEscan; baseline: DMSO control: 100%
GSK3B (Homo sapiens, UniProt P49841); binding, competition with immobilised ligand: 4.5%
BMP2K (Homo sapiens, UniProt Q9NSY1); binding, competition with immobilised ligand: 66%
PIK3CA (Homo sapiens, UniProt P42336, H1047L); kinase binding, KINOMEscan; baseline: DMSO control: 100%
CASK (Homo sapiens, UniProt O14936); kinase binding, KINOMEscan; baseline: DMSO control: 96%
CDC42BPA (Homo sapiens, UniProt Q5VT25); binding, competition with immobilised ligand: 100%
STK38L (Homo sapiens, UniProt Q9Y2H1); binding, competition with immobilised ligand: 93%
ROCK1 (Homo sapiens, UniProt Q13464); binding, competition with immobilised ligand: 93%
EPHB6 (Homo sapiens, UniProt O15197); binding, competition with immobilised ligand: 90%
ANKK1 (Homo sapiens, UniProt Q8NFD2); kinase binding, KINOMEscan; baseline: DMSO control: 100%
MAP2K5 (Homo sapiens, UniProt Q13163); kinase binding, KINOMEscan; baseline: DMSO control: 68%
Aurora kinase C (AURKC, Homo sapiens, UniProt Q9UQB9); kinase binding, KINOMEscan; baseline: DMSO control: 100%
PKMYT1 (Homo sapiens, UniProt Q99640); binding, competition with immobilised ligand: 79%
EPHA5 (Homo sapiens, UniProt P54756); binding, competition with immobilised ligand: 100%
PIK3CA (Homo sapiens, UniProt P42336, H1047Y); binding, competition with immobilised ligand: 100%

Study 3
SMILES: C[C@@H]1CN(c2ccc(-c3cc(C(=O)NCCOCCOCCOCCOCCOCCOCCNC(=O)/C=C/c4[nH]cc(C(=O)N[C@@H](CC(N)=O)c5ccc(F)c(Cl)c5)c4-c4ccc(Cl)cc4F)ccc3F)cc2NC(=O)c2ccc(F)cc2C(F)(F)F)C[C@H](C)N1C
Read-out: thermal unfolding
Method: differential scanning fluorimetry
Concentration: 5.5 µM
Reading: higher = more unfolded
Measurement: SYPRO Orange fluorescence
WDR5: WD repeat-containing protein 5 (WDR5, Homo sapiens, UniProt P61964)
DCAF1: DDB1- and CUL4-associated factor 1 (DCAF1, Homo sapiens, UniProt Q9Y4B6)
UniProt Q9Y4B6, sequence (whole entry, looked up): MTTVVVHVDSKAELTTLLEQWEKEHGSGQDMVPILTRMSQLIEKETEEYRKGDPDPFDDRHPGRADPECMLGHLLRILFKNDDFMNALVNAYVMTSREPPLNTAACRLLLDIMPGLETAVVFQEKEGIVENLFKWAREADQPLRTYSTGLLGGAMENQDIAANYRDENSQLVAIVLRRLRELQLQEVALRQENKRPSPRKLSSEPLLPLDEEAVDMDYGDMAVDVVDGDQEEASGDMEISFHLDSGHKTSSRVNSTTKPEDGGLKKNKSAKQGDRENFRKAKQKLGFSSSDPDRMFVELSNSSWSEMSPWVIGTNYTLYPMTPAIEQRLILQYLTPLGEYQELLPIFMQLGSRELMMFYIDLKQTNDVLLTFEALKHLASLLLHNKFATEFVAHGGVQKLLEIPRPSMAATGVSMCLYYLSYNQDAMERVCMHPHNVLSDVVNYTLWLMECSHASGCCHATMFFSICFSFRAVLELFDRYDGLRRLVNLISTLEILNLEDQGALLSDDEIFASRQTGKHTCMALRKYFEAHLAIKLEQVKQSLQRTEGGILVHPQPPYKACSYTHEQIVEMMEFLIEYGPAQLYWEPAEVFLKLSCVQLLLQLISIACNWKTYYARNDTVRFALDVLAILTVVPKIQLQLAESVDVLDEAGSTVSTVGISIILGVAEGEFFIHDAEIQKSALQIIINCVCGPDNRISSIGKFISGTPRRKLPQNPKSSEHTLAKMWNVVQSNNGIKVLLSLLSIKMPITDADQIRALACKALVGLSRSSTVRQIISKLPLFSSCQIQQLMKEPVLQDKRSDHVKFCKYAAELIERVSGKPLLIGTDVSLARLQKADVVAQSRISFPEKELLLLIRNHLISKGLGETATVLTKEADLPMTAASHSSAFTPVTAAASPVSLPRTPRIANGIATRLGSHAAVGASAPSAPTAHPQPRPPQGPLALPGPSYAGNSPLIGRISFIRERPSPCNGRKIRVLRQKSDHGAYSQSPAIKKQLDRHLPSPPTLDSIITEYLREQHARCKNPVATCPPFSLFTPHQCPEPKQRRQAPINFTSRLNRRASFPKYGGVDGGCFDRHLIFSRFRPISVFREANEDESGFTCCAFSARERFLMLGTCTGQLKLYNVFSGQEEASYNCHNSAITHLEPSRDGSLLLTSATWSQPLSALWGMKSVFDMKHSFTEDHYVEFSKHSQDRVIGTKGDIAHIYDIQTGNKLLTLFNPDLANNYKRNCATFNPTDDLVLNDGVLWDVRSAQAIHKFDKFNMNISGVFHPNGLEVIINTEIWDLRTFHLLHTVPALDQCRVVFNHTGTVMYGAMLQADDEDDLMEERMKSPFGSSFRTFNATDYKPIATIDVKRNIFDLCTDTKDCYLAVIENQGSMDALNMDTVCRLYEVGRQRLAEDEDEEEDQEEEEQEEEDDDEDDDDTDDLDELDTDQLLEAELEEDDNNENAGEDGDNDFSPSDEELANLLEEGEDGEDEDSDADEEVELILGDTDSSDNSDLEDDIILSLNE
WDR5; 44 °C: 14500 a.u.
WDR5; 72.01 °C: 35600 a.u.
DCAF1; 91.61 °C: 31200 a.u.
DCAF1; 41 °C: 12100 a.u.
WDR5; 78.81 °C: 62400 a.u.
DCAF1; 72.81 °C: 45800 a.u.
DCAF1; 39.4 °C: 11200 a.u.
DCAF1; 25.2 °C: 7490 a.u.
DCAF1; 78.41 °C: 41000 a.u.
WDR5; 28.8 °C: 13500 a.u.
WDR5; 79.41 °C: 63700 a.u.

Study 4
SMILES: CCN1CCN(Cc2ccc(COc3c(-c4c(C)c(F)cc5[nH]ncc45)c(C4CC4)cc4c(N5C[C@@H]6C[C@H]5CN6)nc(OC5CCOCC5)nc34)cc2)C(=O)C1
Method: CellTiter-Glo
Measurement: viability
AsPC-1 (KRAS G12D); 100 nM: 65.4% and 75.1% and 68.4% and 71.9%
AsPC-1 (KRAS G12D); 300 nM: 42.1% and 49.2% and 54.4% and 57.1%
A-375 (KRAS wild type); 100 nM, 6 days; baseline: DMSO: 88.8% and 98.4% and 118% and 87.1%
AsPC-1 (KRAS G12D); 10 nM: 89% and 91.5% and 96.9% and 93%
A-375 (KRAS wild type); 1 µM, 6 days; baseline: DMSO: 101% and 103% and 108%
AsPC-1 (KRAS G12D); 30 nM: 91% and 81% and 80.8% and 84.3%
AsPC-1 (KRAS G12D); 3 nM: 92.1% and 83.6% and 95.8%
AsPC-1 (KRAS G12D); 10 µM: 0.056% and 0.041% and 0.031% and 0.011%

For quick reference, copied from above (study 4):
AsPC-1 (KRAS G12D); 100 nM: 65.4% and 75.1% and 68.4% and 71.9%
AsPC-1 (KRAS G12D); 300 nM: 42.1% and 49.2% and 54.4% and 57.1%
A-375 (KRAS wild type); 100 nM, 6 days; baseline: DMSO: 88.8% and 98.4% and 118% and 87.1%
AsPC-1 (KRAS G12D); 10 nM: 89% and 91.5% and 96.9% and 93%
A-375 (KRAS wild type); 1 µM, 6 days; baseline: DMSO: 101% and 103% and 108%
AsPC-1 (KRAS G12D); 30 nM: 91% and 81% and 80.8% and 84.3%
